# Experimental data collected from several papers.
# Lines come from different studies, so protocols differ.
Structure (SMILES),organism,assay,system,conditions,quantity,value
NC1=NC2(CCCCC2)N(c2ccc(OCc3cn(CCCCOc4ccc5ccc(=O)oc5c4)nn3)cc2)C(N)=N1,Mycobacterium tuberculosis,bacterial growth,compound-resistant fbiC or fgd1 mutant,,MIC50,1.6 µM
CN[C@@H]1[C@H](O)[C@H](NC)[C@H]2O[C@]3(O)[C@H](O[C@@H]2[C@H]1O)O[C@H](C)C[C@H]3NC(=O)Cc1ccc(F)cn1,Mycobacterium tuberculosis,microbial growth,ATCC35837,,MIC,6.3 µg/mL
C1CC2C3C4C5CCC4C24CNCC54C13,Influenza A virus,viral replication,A/X-31 (H3N2),,EC50,> 100 µM
CN[C@@H]1[C@H](O)[C@H](NC)[C@H]2O[C@]3(O)[C@H](O[C@@H]2[C@H]1O)O[C@H](C)C[C@H]3NC(=O)Cc1ccccn1,Mycobacterium tuberculosis,microbial growth,ATCC35837,,MIC,3.1 µg/mL
CC(C)(C)C1CCc2c(sc3nc(SCCCN4CCCCC4)nc(N)c23)C1 (racemic),Mycobacterium tuberculosis,,K204,"100 µM, compound toxic alone, added: kanamycin",kanamycin MIC,toxic
Cc1cc(/C=C/c2ccc(C(=O)O)cc2)ccc1OCCc1scnc1C,Mycobacterium tuberculosis,,"CDC1551 rel knock-in, nutrient-starved","concentration not given, 7 days",log reduction viability,0.05 log10
Nc1nc(SCCN2CCCCC2)nc2sc3c(c12)CCCCC3,Mycobacterium tuberculosis,,K204,"100 µM, compound toxic alone, added: kanamycin",kanamycin MIC,toxic
Cc1[nH]c(=O)c(CNC(=O)c2ccc(C(F)(F)F)nc2)c2c1CCCC2,Mycobacterium tuberculosis,,"MDR, INH and RIF resistant",,MIC,0.9 to 3 µg/mL
Nc1nc(SCCCN2CCCCC2)nc2sc3c(c12)CCC(c1ccccc1)C3 (stereo not drawn),Mycobacterium tuberculosis,,K204,"100 µM, compound toxic alone, added: kanamycin",kanamycin MIC,toxic
Cc1cc(=O)oc2cc(OCCCCn3cc(COc4ccc(N5C(N)=NC(N)=NC56CCCCC6)cc4)nn3)ccc12,Mycobacterium tuberculosis,bacterial growth,TA-C-resistant fbiC or fgd1 mutant,,MIC50,1.6 µM
CN[C@@H]1[C@H](O)[C@H](NC)[C@H]2O[C@]3(O)[C@H](O[C@@H]2[C@H]1O)O[C@H](C)C[C@H]3NC(=O)Cc1cscn1,Mycobacterium tuberculosis,microbial growth,ATCC35837,,MIC,1.6 µg/mL
CCC1(CC)C2CC3CC(C2)CC1(N(C)C)C3,Influenza A virus,viral replication,A/PR/8/34 cl3,pH 5.7,EC50,> 100 µM

# A few entries again:
Structure (SMILES),organism,assay,system,conditions,quantity,value
CN[C@@H]1[C@H](O)[C@H](NC)[C@H]2O[C@]3(O)[C@H](O[C@@H]2[C@H]1O)O[C@H](C)C[C@H]3NC(=O)Cc1ccc(F)cn1,Mycobacterium tuberculosis,microbial growth,ATCC35837,,MIC,6.3 µg/mL
C1CC2C3C4C5CCC4C24CNCC54C13,Influenza A virus,viral replication,A/X-31 (H3N2),,EC50,> 100 µM
